Results pooled from the literature.
Each numbered part is a random draw from the data of one study; scales do not carry over between parts. Positions count from the first letter of the parent shown.

Set 1 — target: CCND2, cyclin fold, Cln2 fusion (human); technique: yeast growth competition, sequencing; medium: yeast; notes: weak parent motif; reference: not given; reading: higher = stronger binding
Starting sequence: PKMYT1 docking peptide (human); SFEPRNLLSLFED
Variant	normalised enrichment score
D13L	0.032
E12W	-0.0457
S1D	-0.0999
D13Q	-0.177
P4G	-0.119
F2A	-0.0716
F2N	-0.227
F2H	0.193
L10W	0.283
E12F	0.104
D13Y	0.153
D13S	0.235
F2M	-0.14
N6E	-0.0426
E12N	0.277
L7R	0.00921
L8N	0.165
E12L	-0.412

Set 2 — technique: RNA Bind-n-Seq; form: RNA; medium: in vitro; concentration: 365 nM; reference: no-protein control; reading: higher = stronger binding
Target: RNA binding protein fox-1 homolog 2, RRM domain, GST-SBP tag (RBFOX2, Homo sapiens, UniProt O43251-10, residues 100-194)
Notes: natural RNA segment, single round, ends assumed
Constant ends, left off below: GGGAGUUCUACAGUCCGACGAUC … UGGAAUUCUCGGGUGCCAA
Construct (chain): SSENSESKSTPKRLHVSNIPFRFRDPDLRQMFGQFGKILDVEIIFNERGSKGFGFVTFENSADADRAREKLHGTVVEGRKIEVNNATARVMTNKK
Oligonucleotide	RBNS enrichment (R)
GCUGCAGAGAGAGAGAGUGUGUGUAUGUGUGCACAUGUGUGAGAGUGUGAGCGAGAGUGUGUGUGUGUCCAUCUAAGUGUGUGUGAUGAAGGUGGGAUAAGGCUCCUCUG	3.42
AACUGGGCUCAAACAAUCCUCAGCCUAAAACACUGUUGUCUUUUAAUAUGCUUCCAACCCAAAGGCCUUUCAUCUCAGUAUCUGUCAAACUUGAAUAACGUCUUCUCUUU	0.531
UCCGGAUUUUCUUUUGGGGGUUAGAAGGUCAGGUGUGGAGACUGCUCGCCAGUCUCUGUGAGCCUAGGCCCUGAGCUGGGGAGGUGGGGAAGAUUCGGGCAUGUGAGUGC	0.559
UGGAUGGCCUGAAGAAGCUGUUCUCCAGCCACAACAACCACAGAAAGCCCCUCGCUCUCCCCUCUCUGUUUUCCCAUUAAUCAAAGCCAUGUCUAGAAUGGGCCAGCCAC	0.53
GCACAGCGCACUGUGGAGCAGAGAGGAGGGAGACAGGAGUAGGGUUAUCAGGGAAGCUUGCUCUGCCAGGCUGCUCCAGGAUGCCAGCUUGUCUCUGACUCGGUUGAGGU	0.525
CUUAUAAAUGGGGACGUAUUGGAGAAGGAAAUACAUAGACCUACAACUUUGAGCAAAUAGCAGUGAUGUUUUAGGAACUGAAAUGUCACACUUAAAGUCUUCAGCCCAGC	0.343
ACUCUGAGAAUGUUUCCAAGUGAGAGUCACUUUCUUGACCCUCAAGAGAAGCUAGACGACACAGAAGAACCUUAAUGGACAGUGUACCCAUGCUUGAUCUGUCUCACACC	0.513
UGAUUUGAUAGUCUUGAUCUAAAAAUAAUGUUUUGUUAAUAUGUCACUAAAUUUCUAAAAACUGUAUUCAUGGGCUGCUGAGAUGGCUCACAAGAAAAGCACUUGCUGCC	0.618
AAAAUCCUCUGGCUGGCUAACUGGAAGCAUGUAGGAGAAUCCAAGCGAGGUCAACAGAGAAGGCAGGAAUGUGUGGCAGAUUUAGUGAAAGCUAGAGAUAUGGCAGCGAA	24.1
UUCUGGUUGGAAAUUAUAUAAACCAACAUGACAAUAACUGUUUCCCCCCAAAAGGCUCAGGAGCUGACUUUUAGAAGUGAGGUUCAAAGUCUUUAACCACUUCUGAAUCU	0.301
UCUCUGAACAUGUAUGUUGCCCAUGGUGGGAGCGUGGUCACUGUGCAGUUGUGCACAGAUGUCUUUCCUUUACCGUUGGCCUUUCUGUCUGCCUCUCCUUCCUCUCUGCA	2.14
AGAUUUGUGUUGAACGAAAACAUUGUGGUUUGGAAAGGAGAAUUCAACAAUUAAUAGUUGAAAUUGUGAGGUUAAUGUUUAAAAAGCUUUACACCUGUUUACAAUUUGGG	1.01

Set 3 — technique: protein-binding microarray; form: double-stranded DNA, one strand shown; medium: in vitro; concentration: 2540 nM top; notes: 60-bp whole probe; together with: salmon DNA 0.4 mg/ml; reference: random background probes; reading: higher = stronger binding; constant ends, left off below: GCCTAGCAC … GTCTTGATTCGCTTGACGCTGCTG
Target: Interferon regulatory factor 3, full length, phosphomimetic (IRF3, Homo sapiens, UniProt Q14653, residues 1-427, S386D/S396D/S398D/S402D/T404D/S405D)
Residues (chain): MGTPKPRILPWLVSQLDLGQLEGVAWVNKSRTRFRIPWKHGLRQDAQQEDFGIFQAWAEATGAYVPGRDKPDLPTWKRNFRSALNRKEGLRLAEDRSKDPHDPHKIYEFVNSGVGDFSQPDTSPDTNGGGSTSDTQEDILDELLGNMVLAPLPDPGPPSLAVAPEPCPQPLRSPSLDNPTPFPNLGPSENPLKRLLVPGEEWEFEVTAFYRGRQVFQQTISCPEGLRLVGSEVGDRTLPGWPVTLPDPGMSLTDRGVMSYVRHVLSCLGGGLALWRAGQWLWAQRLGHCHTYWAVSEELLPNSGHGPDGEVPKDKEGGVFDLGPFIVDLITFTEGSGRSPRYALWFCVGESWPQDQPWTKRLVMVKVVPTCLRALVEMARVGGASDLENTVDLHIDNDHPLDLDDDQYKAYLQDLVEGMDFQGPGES
Oligonucleotide	fitted relative affinity
GACGGCTTCGGGTTTCGGGACGTGCTA	0.524 z-score
GACGATCTCGGTATCGAGACGTGCTAG	1.04 z-score
CTCCATGAACAGGGCTGATGGTGCTAG	-0.549 z-score
GACGCACTGCTACTGCTGACGTGCTAG	-0.502 z-score
GGGCGGGTGCCAACTCTTAGGTGCTAG	-0.471 z-score
TACGATATCGGGACTGGAGACGTGCTA	-0.0488 z-score
GACGGTATCCTTCTCCTCACGTGCTAG	7.18 z-score
TTAGATATCAGTTTCGATGAGTGCTAG	3.68 z-score
TTAGAAATGAGTCTCGATTAGTGCTAG	-0.201 z-score
TCAACTCTTTCTGTCAGACTGTGCTAG	0.96 z-score
TTAGAAATTTCTTTCTAATTGTGCTAG	1.02 z-score
TTAGGTATCGGGTATCGGTTGGTGCTA	1.74 z-score
TCAGCCATATTTATCTGACTGTGCTAG	0.0445 z-score
GTAGATTTCAGTCTCGATTAGTGCTAG	2.41 z-score
TTAGGTTCCGGTTTCGGTTGGTGCTAG	7.2 z-score
GACGAACTGAGTCTCGAGTCGTGCTAG	-0.218 z-score
AACGATTTCGGGTTTCGAGACGTGCTA	2.54 z-score
ATAGGTATCGGACTGGGTTAGTGCTAG	1.12 z-score
TTAGGTTTCGGGTTCCGGTTAGTGCTA	5.25 z-score
GACGGTCTCCTTCACCTGACGTGCTAG	0.825 z-score
TTAGATTTCAGTTTCGATAAGTGCTAG	5.74 z-score
TTAGGTATCGGTATCGATTAGTGCTAG	4.93 z-score
ATAACTTTTTTTTTTCCCTGGTGCTAG	1.06 z-score
TCATCTTTCACTGCTCCAACTGTGCTA	1.33 z-score
TTAGATATCGGGACTCGATTAGTGCTA	0.0467 z-score

Set 4 — technique: aptamer microarray, sandwich; form: DNA with 2'F-ANA; medium: in vitro; concentration: 200 nM; together with: Cy3 exosite-II aptamer, 400 nM; reading: higher = stronger binding; oligonucleotide: GGTTGGTGTGGTTGG
Target: Prothrombin, mature alpha-thrombin (F2, Homo sapiens, UniProt P00734)
Notes: whole 15-mer aptamer, many near background
Modification	mean fluorescence intensity [a.u.]
2'F-ANA at 2 5 6 7 8 9 13 14 15	46.1
2'F-ANA at 1 3 5 8 9 10 11 12 14	45.9
2'F-ANA at 3 5 6 7 8 9 10 13	63.1
2'F-ANA at 6 13	413
2'F-ANA at 1 3 4 5 6 8 9 10 14	68.3
2'F-ANA at 2 4 5 7 8 9 10 13 15	47.1
2'F-ANA at 1 2 3 5 7 8 9 10 11 13 15	53.8
2'F-ANA at 1 7 8 9 11 14 15	63.4
2'F-ANA at 3 4 5 15	107
2'F-ANA at 2 3 4 8 10 11 12 14	180
2'F-ANA at 3 6 7 9 10 11 14 15	357
2'F-ANA at 1 4 5 6 8 9 10 11 13 15	63.6
2'F-ANA at 4 5 7 9 10 11 12 13 14 15	55.2
2'F-ANA at 1 2 4 10 11 12 13 15	53.1
2'F-ANA at 1 4 8 9 12 14 15	62.9
2'F-ANA at 1 3 4 9 10 11 14 15	57.9
2'F-ANA at 4 6 8 10 11 14	76.3
2'F-ANA at 2 5 6 8 9 10 12 13	51.1
2'F-ANA at 1 2 3 4 7 9 12 14 15	68.8
2'F-ANA at 2 3 5 6 8 11 13 14 15	54
2'F-ANA at 2 4 5 6 7 9 12 13 15	78.3
2'F-ANA at 1 5 6 7 9 10 12 15	47.6
2'F-ANA at 2 4 5 6 7 8 9 11 12 13 14 15	50.8
2'F-ANA at 2 3 4 6 7 12 15	800
2'F-ANA at 1 4 9 12 15	246
